Measured values gathered from unrelated publications.
Compare with care: the assays were run in different laboratories. “And” joins repeats or separate records; there may be more than shown. ± marks the error that the study gave.

O=C(CNc1nc(NS(=O)(=O)c2ccccc2)ncc1-c1nc2ccccc2s1)c1ccc(Br)cc1
maximum non-toxic concentration (FRhK-4; cytotoxicity; 72 h): 120 µg/mL

N#Cc1cc(C#N)c(=O)n(NS(=O)(=O)c2ccccc2)c1N
maximum non-toxic concentration (FRhK-4; 72 h): 100 µg/mL

Cc1ccc2c(c1)C(=O)[C@]1(O)CCN(c3ccc4nc(C)ccc4c3)C1=N2.Cl
cytotoxicity (human and murine GBM lines; CellTiter-Glo; 10 µM, 96 h): > 90%

O=C(Nc1cc(F)c(F)c(F)c1)c1ccc(F)c(S(=O)(=O)NCc2cccc(B(O)O)c2)c1
CC50 (HepAD38 cells; CCK-8; 6 days): 8.03 ± 0.5 µM

COc1ccc(CNC(=O)c2ccc(CNCc3cnc4nc(N)nc(N)c4n3)cc2)cc1OC
CC50 (THP-1-derived macrophages; MTT): > 100 µM

COc1cc(/C=C/C(=O)/C=C/c2ccc(O)c(OC)c2)ccc1O
viability (WRL68; MTT; 3.2 µg/mL, 48 h, 10% fetal bovine serum): 10.5% and 10.7%

Nc1nc(N)c2nc(CNc3ccc(C(=O)c4ccccc4)cc3)cnc2n1
CC50 (THP-1-derived macrophages; MTT): 12.5 to 25 µM

CC(=O)N[C@H]1[C@H]([C@H](O)[C@H](O)CO)OC(C(=O)O)=C[C@@H]1N=C(N)N
Papp (Caco-2 monolayer; HBSS without Ca2+; 180 min, basolateral to apical): 2.57 ± 0.206 ×10⁻⁶ cm/s

Nc1nc(N)c2nc(CNc3cccc4ccccc34)cnc2n1
CC50 (THP-1-derived macrophages; MTT): 12.5 to 25 µM

COc1cc2ncnc(Nc3ccc(Oc4ccccc4)cc3C)c2cc1OC.O=C(O)C(F)(F)F
viability fraction (SW-620 (KRAS G12V); resazurin; concentration not given, 72 h, added: trametinib 0 nM): 0.996 and 1 and 0.99 and 0.928 and 0.858 and 0.954 and 0.939

CCCC(CCC)NC(=O)c1ccc2c(c1)OCO2
relative cell growth (CHO-WBL; 0.56 mg/mL, 3 h, with rat liver S9; baseline: vehicle control): 37%

COC(=O)C1CCN(C(=O)c2ccc(N(Cc3ccccc3)Cc3cnc4nc(N)nc(N)c4n3)cc2)CC1
CC50 (THP-1-derived macrophages; MTT): 12.5 to 25 µM

Cc1ccc(S(=O)(=O)Nc2nc(N)c(-c3nc4ccccc4s3)c(-c3ccc(Cl)cc3)n2)cc1
maximum non-toxic concentration (FRhK-4; cytotoxicity; 72 h): 100 µg/mL

COC(=O)C1CCN(C(=O)c2ccc(N(CCO)Cc3cnc4nc(N)nc(N)c4n3)cc2)CC1
CC50 (THP-1-derived macrophages; MTT): > 100 µM

Cc1cc(C(=O)NC(C)(C)COc2cccc3c2C(N)=NS(=O)(=O)N3)cc(C)n1
cytotoxicity (human peripheral blood lymphocytes; CBPI, concurrent micronucleus test; 1500 µg/mL, 4 h, added: rat liver S9; baseline: vehicle control): -4%

O=C(Cn1ccnc1)Nc1ccc(C2CCCCC2)cc1
hepatic clearance (mouse liver microsomes; 1 µM): 55 mL/min/kg

NC(=O)C1CCN(C(=O)c2ccc(NCc3cnc4nc(N)nc(N)c4n3)cc2)CC1
CC50 (THP-1-derived macrophages; MTT): > 100 µM

C[C@@H](CN1CC(=O)NC(=O)C1)N1CC(=O)NC(=O)C1
cytotoxicity (LUHMES MT1G-HiBiT neurons, differentiated; concentration not given): toxic

Cc1ccc(S(=O)(=O)Nc2nc(N)c(-c3nc4ccccc4s3)c(-c3ccc(F)cc3)n2)cc1
maximum non-toxic concentration (FRhK-4; cytotoxicity; 72 h): 100 µg/mL

O=C(NCC1CCOCC1)c1ccc(C2CCCCC2)cc1
hepatic clearance (liver microsome stability; human liver microsomes; 1 µM, without NADPH): 3.9 mL/min/kg

Cc1ccc(S(=O)(=O)Nc2nc(N)c(-c3nc4ccccc4s3)c(-c3ccccc3)n2)cc1
maximum non-toxic concentration (FRhK-4; cytotoxicity; 72 h): 90 µg/mL

CSc1c(-c2nc3ccccc3s2)c(N)n(NS(=O)(=O)c2ccc(C)cc2)c(=O)c1C#N
maximum non-toxic concentration (FRhK-4; 72 h): 110 µg/mL
